Measurements of several laboratories.
Numbered parts are unrelated; each lists some results of a single study.

Block 1
Target: Interferon regulatory factor 7, full length, phosphomimetic (IRF7, Homo sapiens, UniProt Q92985, residues 1-503, S471D/S472D/S475D/S476D/S477D/S483D/S484D/S487D)
Method: protein-binding microarray
Molecule type: double-stranded DNA, one strand shown
Matrix: in vitro
Tested at: 2200 nM top
Setting: 60-bp whole probe
Added: salmon DNA 0.4 mg/ml
Baseline: random background probes
Reading: higher = stronger binding
Shared flanks, not repeated: GCCTAGCAC … GTCTTGATTCGCTTGACGCTGCTG
Target sequence (chain): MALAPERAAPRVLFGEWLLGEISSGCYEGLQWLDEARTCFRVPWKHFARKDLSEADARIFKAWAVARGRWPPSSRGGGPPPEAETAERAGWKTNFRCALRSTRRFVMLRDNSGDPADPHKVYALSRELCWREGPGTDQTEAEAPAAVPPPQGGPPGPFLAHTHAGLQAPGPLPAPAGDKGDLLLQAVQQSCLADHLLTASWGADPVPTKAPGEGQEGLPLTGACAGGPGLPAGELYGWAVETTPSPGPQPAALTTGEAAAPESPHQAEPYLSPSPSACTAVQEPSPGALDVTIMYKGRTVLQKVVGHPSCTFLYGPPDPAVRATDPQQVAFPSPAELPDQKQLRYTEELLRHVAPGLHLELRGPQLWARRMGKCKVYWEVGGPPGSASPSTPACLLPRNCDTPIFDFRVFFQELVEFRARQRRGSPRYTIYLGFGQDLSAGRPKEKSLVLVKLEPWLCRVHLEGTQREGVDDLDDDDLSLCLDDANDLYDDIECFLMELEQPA
For `CCCAGACTTGATTTTGGTCTGTGCTAG`, “fitted relative affinity” read 0.405 z-score.
`CTTTGCCTCATCTTGCAGGTAGTGCTA`: “fitted relative affinity” 0.865 z-score.
Under “fitted relative affinity”, `GAGGGACTGCTTCTCCTGACGTGCTAG` is recorded as 0.0947 z-score.
Under “fitted relative affinity”, `TGTTGTCTGTGTTTCCTTGTGTGCTAG` is recorded as 2.04 z-score.
For `GACGGTATCGACACGGGGGACGTGCTA`, “fitted relative affinity” read 0.212 z-score.
`TTAGATATCTGGTATCGATTAGTGCTA`: “fitted relative affinity” 0.191 z-score.
Under “fitted relative affinity”, `TCAGGACTGGACTTTCGGTTAGTGCTA` is recorded as 5.1 z-score.
`CGATTACAGCTAGGTAGTGGGTGCTAG`: “fitted relative affinity” 0.0967 z-score.
`TGGAGAGCATATTCTGTGACGTGCTAG`: “fitted relative affinity” -0.471 z-score.
`TTATGTTTCGGTTTCGGTTAGTGCTAG`: “fitted relative affinity” 15.3 z-score.
`AGGAAGATCATTCTCACTGCGTGCTAG` — result for “fitted relative affinity”: -0.23 z-score.
`GACGATTTGGGGACTGGAGACGTGCTA` — result for “fitted relative affinity”: 0.237 z-score.
`GACGATCTCAGACGGGAGACGTGCTAG` — result for “fitted relative affinity”: -0.199 z-score.
`ATAGGTTTCGACTTTCGGTTAGTGCTA` — result for “fitted relative affinity”: 10.9 z-score.
For `GACGAACTGGGGTATCGAGGCGTGCTA`, “fitted relative affinity” read -0.0435 z-score.
`CCTAGTTTCATTCCTGATCTGTGCTAG` — result for “fitted relative affinity”: 4.06 z-score.

Block 2
Target: Prothrombin, mature alpha-thrombin (F2, Homo sapiens, UniProt P00734)
Method: aptamer microarray, sandwich
Molecule type: DNA with 2'F-ANA
Matrix: in vitro
Tested at: 200 nM
Setting: whole 15-mer aptamer, many near background
Added: Cy3 exosite-II aptamer, 400 nM
Reading: higher = stronger binding
Oligonucleotide: GGTTGGTGTGGTTGG
For `2'F-ANA at 4 5 11 12 13`, “mean fluorescence intensity” read 85.6 a.u.
Under “mean fluorescence intensity”, `2'F-ANA at 2 3 4 6 7 8 10 11 12 15` is recorded as 350 a.u.
`2'F-ANA at 1 3 5 8 11 12 15`: “mean fluorescence intensity” 105 a.u.
For `2'F-ANA at 3 4 6 7 8 10 12 13`, “mean fluorescence intensity” read 275 a.u.
Under “mean fluorescence intensity”, `2'F-ANA at 2 4 6 9 13` is recorded as 151 a.u.
For `2'F-ANA at 1 2 3 6 7 8 9 11 12 14`, “mean fluorescence intensity” read 107 a.u.
For `2'F-ANA at 3 6 7 8 13 14 15`, “mean fluorescence intensity” read 585 a.u.
Under “mean fluorescence intensity”, `2'F-ANA at 1 3 4 5 6 7 8 9 11 13 15` is recorded as 49.5 a.u.
For `2'F-ANA at 1 2 8 10 11 12 13 14`, “mean fluorescence intensity” read 52.7 a.u.
For `2'F-ANA at 2 5 9 11`, “mean fluorescence intensity” read 85.8 a.u.
For `2'F-ANA at 1 2 9 11 12 14`, “mean fluorescence intensity” read 60.6 a.u.
For `2'F-ANA at 4 6 8 9 10 11 12`, “mean fluorescence intensity” read 92.6 a.u.
For `2'F-ANA at 3 4 5 6 7 8 11`, “mean fluorescence intensity” read 101 a.u.
Under “mean fluorescence intensity”, `2'F-ANA at 2 3 4 5 6 8 10 11 12 13` is recorded as 52.8 a.u.
`2'F-ANA at 4 7 10 11 12`: “mean fluorescence intensity” 116 a.u.
For `2'F-ANA at 2 5 8 10 12 14 15`, “mean fluorescence intensity” read 47.3 a.u.
`2'F-ANA at 1 3 5 8 10 13`: “mean fluorescence intensity” 63.5 a.u.
`2'F-ANA at 4 5 7 8 11 13 15` — result for “mean fluorescence intensity”: 92.4 a.u.
`2'F-ANA at 2 3 4 8 9 10 11 13 14 15`: “mean fluorescence intensity” 147 a.u.
`2'F-ANA at 1 2 4 6 10 11 13 14`: “mean fluorescence intensity” 76.7 a.u.
Under “mean fluorescence intensity”, `2'F-ANA at 1 5 6 7 8 10 14` is recorded as 52.9 a.u.
`2'F-ANA at 1 3 4 5 6 9 11 12 14 15` — result for “mean fluorescence intensity”: 47.1 a.u.
For `2'F-ANA at 2 3 4 7 8 11 14 15`, “mean fluorescence intensity” read 349 a.u.

Block 3
Target: Centromere-binding protein 1, full length, His-tagged (CBF1, Saccharomyces cerevisiae, UniProt P17106, residues 1-351)
UniProt P17106, sequence (whole entry, looked up): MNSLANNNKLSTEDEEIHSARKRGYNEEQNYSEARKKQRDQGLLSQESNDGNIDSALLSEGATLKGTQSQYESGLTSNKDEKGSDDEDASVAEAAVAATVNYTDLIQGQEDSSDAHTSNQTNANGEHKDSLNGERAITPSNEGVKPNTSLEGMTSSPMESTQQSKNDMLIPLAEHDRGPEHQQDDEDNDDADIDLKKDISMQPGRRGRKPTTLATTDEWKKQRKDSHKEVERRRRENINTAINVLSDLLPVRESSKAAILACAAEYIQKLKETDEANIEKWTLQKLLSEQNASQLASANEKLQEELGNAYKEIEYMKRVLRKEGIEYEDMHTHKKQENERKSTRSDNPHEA
Method: competition protein-binding microarray
Molecule type: double-stranded DNA, one strand shown
Matrix: in vitro
Tested at: 2 µM
Setting: whole 60-bp probe, lowest competitor level
Added: Pho4 competitor, 0.05 µM
Reading: higher = stronger binding
Shared flanks, not repeated: … GTCTTGATTCGCTTGACGCTGCTG
With `CGCTCGCCTCATACCCACGGGAATAAGGCAGCCGAC` the fluorescence intensity was 57.7 a.u.
With `AGAAATGTCCCGGAAAACGTGGGTATGCGGTGAGGA` the fluorescence intensity was 92.5 a.u.
The fluorescence intensity of `GCAATTCTTAGAGGCCACGTGGGCAGAGAGCGGCGC` is reported as 1470 a.u.
With `AAAGGGCGAAGTTACACCGTTTTCAAAGGTGGAGTG` the fluorescence intensity was 60.9 a.u.
For `CTTCTGTAAATTTGTCACCTCACTTGACGCGCCCCG`, the fluorescence intensity was 88.2 a.u.
`ACAGGTATCTGGGGCAACGTGGGCTTAAGATTAGCC` has a fluorescence intensity of 86.1 a.u.
For `CCCGGCCCCCCCAGCCACGTGAACCCCACAAAGTGC`, the fluorescence intensity was 1680 a.u.
The fluorescence intensity of `CGTCCTAGTGATTTTCACGTGACATCCATGAGGAAG` is reported as 6800 a.u.
With `CTTTCCCGATCTTGTCACTTTACTTTAGCACATTTG` the fluorescence intensity was 79.7 a.u.
`AAAGCGGTAATTTTTCACGTGATTTCACATATCTAT` gave a fluorescence intensity of 4710 a.u.
For `CATACCCAACCTTGAAGAGTGGGTGAAGATATTTGT`, the fluorescence intensity was 72.6 a.u.
`CTAACGAAGGTTTGAACAGTGGGTGACAAGCCAAGT` has a fluorescence intensity of 65.7 a.u.
`AAATTACTAAGTTGAAGTGTGGGTGACGCCGTATGA` gave a fluorescence intensity of 59.6 a.u.
The fluorescence intensity of `GCCAATATCAAGAAAAACGTGTTGGGGGACGAAAAT` is reported as 184 a.u.
The fluorescence intensity of `CAGCCTCCATTCGGTAGCGTGCTGTATGTCAACAAA` is reported as 79.5 a.u.
For `AATGTCAGTATTTATAGCGTGATGGTTCATTACCCG`, the fluorescence intensity was 134 a.u.

Block 4
Target: Sal-like protein 4, full length isoform B (SALL4, Homo sapiens, UniProt Q9UJQ4-2, residues 1-616)
Method: universal PBM
Molecule type: double-stranded DNA, one strand shown
Matrix: in vitro
Tested at: not given
Setting: 8-mer, flanks averaged, mean of replicates
Reading: higher = stronger binding
Residues (chain): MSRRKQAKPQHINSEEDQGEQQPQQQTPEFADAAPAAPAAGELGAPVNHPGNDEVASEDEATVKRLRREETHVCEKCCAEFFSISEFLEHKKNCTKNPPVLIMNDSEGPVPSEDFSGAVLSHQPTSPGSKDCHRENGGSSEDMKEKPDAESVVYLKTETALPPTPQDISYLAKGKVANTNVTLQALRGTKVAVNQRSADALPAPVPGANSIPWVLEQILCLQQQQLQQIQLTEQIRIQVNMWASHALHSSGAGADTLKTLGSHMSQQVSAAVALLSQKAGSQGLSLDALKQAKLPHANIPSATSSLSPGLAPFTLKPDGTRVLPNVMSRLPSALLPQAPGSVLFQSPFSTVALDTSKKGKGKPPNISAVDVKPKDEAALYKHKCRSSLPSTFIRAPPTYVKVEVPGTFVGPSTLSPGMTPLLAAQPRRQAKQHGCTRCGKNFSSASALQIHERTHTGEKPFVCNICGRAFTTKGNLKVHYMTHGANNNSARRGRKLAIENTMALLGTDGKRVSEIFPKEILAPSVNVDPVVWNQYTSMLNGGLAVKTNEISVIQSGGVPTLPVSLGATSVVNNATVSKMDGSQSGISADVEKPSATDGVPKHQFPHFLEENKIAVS
`AGCTAACC` has an E-score of -0.297.
`CTGCCACA` has an E-score of -0.152.
`GAGCCAAC` has an E-score of -0.0384.
`AATAGACC` gave an E-score of 0.0017.
With `ACACTTTG` the E-score was 0.171.
For `GAGGGCGA`, the E-score was -0.241.
`CAACAGAG` has an E-score of -0.105.
`CAATAGTC` gave an E-score of 0.0274.
`CGAACGGC` gave an E-score of -0.204.
The E-score of `ACGCCTTG` is reported as -0.0692.
`AACTACAC` has an E-score of 0.216.
The E-score of `ATGCCGAA` is reported as 0.00015.
The E-score of `TCGGCACA` is reported as -0.144.
The E-score of `CACAAGCC` is reported as -0.194.
The E-score of `AGTAGGTA` is reported as 0.145.
For `CGGGTCAC`, the E-score was -0.35.
For `AATTAGGG`, the E-score was -0.0185.
The E-score of `TCTGCAAA` is reported as 0.102.
`CTACCAAA` gave an E-score of 0.146.
For `ATGCCCGA`, the E-score was -0.133.
With `AATACATT` the E-score was 0.302.

For quick reference, copied from above (block 4):
`CTGCCACA` has an E-score of -0.152.
`GAGCCAAC` has an E-score of -0.0384.
`AATAGACC` gave an E-score of 0.0017.
With `ACACTTTG` the E-score was 0.171.
For `GAGGGCGA`, the E-score was -0.241.
`CAACAGAG` has an E-score of -0.105.
`CAATAGTC` gave an E-score of 0.0274.
`CGAACGGC` gave an E-score of -0.204.
The E-score of `ACGCCTTG` is reported as -0.0692.
